Measured values pooled from the literature.
Each line is one published result; not all experiments were run side by side. ± gives the spread as reported.

SMILES	target or system	assay	system	setting	scale	measurement	value
OC12CC3CC(C1)CC(NCc1cnc(N4CCCCC4)nc1)(C3)C2	A549	MTT	–	–	–	CC50	> 300 µM
Nc1nc2ncc(CNc3ccc(C(=O)N[C@@H](CCC(=O)NCCOCCOCCNC(=O)CN4CCN5CCN(CC4)CC(=O)[O][Al]([18F])[O]C(=O)C5)C(=O)O)cc3)nc2c(=O)[nH]1	A549 tumour model	–	host not given, tumour	90 min, tumour-bearing	–	tracer uptake	2.8 %ID/g
CCOc1cccc(NC(=O)CSc2cn(C(=O)OC(C)(C)C)c3ccccc23)c1	A549	cytotoxicity, CCK-8	–	–	–	CC50	> 100 µM
CC[C@H](C)[C@H](NC(=O)[C@H](CO)NC(=O)[C@@H](NC(=O)[C@@H](N)CCC(=O)O)C(C)C)C(=O)N[C@@H](CCC(=O)O)C(=O)N[C@H](C(=O)N[C@@H](CC(=O)O)C(=O)N[C@H](C(=O)N[C@H](C(=O)N[C@@H](CC(=O)O)C(=O)N[C@@H](CCC(=O)O)C(=O)N[C@H](C(=O)N[C@@H](CC(N)=O)C(=O)O)C(C)C)[C@@H](C)CC)[C@@H](C)CC)[C@@H](C)O	A549	–	–	300 µM, 24 h	–	viability	no effect
CN[C@](C)(C[18F])C(=O)O	A549 tumour model	–	host not given, kidney	30 min, tumour-bearing	–	tracer uptake	11 %ID/g
Nc1nc(SCCCN2CCCCC2)nc2sc3c(c12)CCC(c1ccccc1)C3 (stereo not drawn)	A549	–	–	12.5 µM	–	viability	~20%
COc1ccccc1CNC(=O)CSc1c[nH]c2ccccc12	A549	cytotoxicity, CCK-8	–	–	–	CC50	76.2 µM
c1nc(N2CCCCC2)ncc1CNC12CC3CC(CC(C3)C1)C2	A549	MTT	–	–	–	CC50	72.1 µM
CC(=O)N[C@@H](CO)C(=O)N[C@@H](CC(=O)O)C(=O)N[C@@H](CCCCNC(=O)CCCC[C@@H]1SC[C@@H]2NC(=O)N[C@@H]21)C(=O)N1CCC[C@H]1C(=O)O	A549	flow cytometry	–	40 µg/mL, 5 min, 37 °C	relative to: cells	cellular uptake	12.6 ± 1.2%

A few entries again:
SMILES	target or system	assay	system	setting	scale	measurement	value
c1nc(N2CCCCC2)ncc1CNC12CC3CC(CC(C3)C1)C2	A549	MTT	–	–	–	CC50	72.1 µM
